Measurements collected from several papers.
A part holds a random share of what one study measured. Changes are numbered by the printed parent chain.

Set 1 — target: CCNB2, cyclin fold, Cln2 fusion (human); technique: yeast growth competition, sequencing; medium: yeast; setting: weak parent motif; relative to: not given; reading: higher = stronger binding
Starting sequence: E2F7 docking peptide (human); SSAQRRLEIPSGG; partner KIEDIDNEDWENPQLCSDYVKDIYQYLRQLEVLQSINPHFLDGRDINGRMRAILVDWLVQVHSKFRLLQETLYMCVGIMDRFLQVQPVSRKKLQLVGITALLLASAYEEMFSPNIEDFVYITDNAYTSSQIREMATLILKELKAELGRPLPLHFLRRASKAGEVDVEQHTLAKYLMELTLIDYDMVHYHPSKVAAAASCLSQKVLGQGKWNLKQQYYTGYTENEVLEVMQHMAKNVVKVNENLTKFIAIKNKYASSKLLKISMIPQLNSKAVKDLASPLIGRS
Substitution	normalised enrichment score
SAAQRRLEIPSGG [S2A]	-0.0292
SSAQRRAEIPSGG [L7A]	-0.269
SSAQARAEIPSGG [R5A L7A]	-0.0301
SSAQKRLEIPSGG [R5K]	-0.359
SSAQKRLEFPSGG [R5K I9F]	-0.229
SSAQKRLELPSGG [R5K I9L]	0.0525
SSAQRRLAIPSGG [E8A]	0.27
SSAQRRLEIPSAG [G12A]	0.0652
SSAARRLEIPSGG [Q4A]	0.253
SSAQRALEIPSGG [R6A]	-0.576

Set 2 — technique: protein binding microarray; form: double-stranded DNA, one strand shown; medium: in vitro; tested at: not given; relative to: not given; reading: higher = stronger binding
Target: Histone acetyltransferase KAT6A, winged helix 2, GST fusion (KAT6A, Homo sapiens, UniProt Q92794, residues 85-181)
Setting: 8-mer, flanks averaged, mean of 2 arrays, mostly near background
Target sequence (chain): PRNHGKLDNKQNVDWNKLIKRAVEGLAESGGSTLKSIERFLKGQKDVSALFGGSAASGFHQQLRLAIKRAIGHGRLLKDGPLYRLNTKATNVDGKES
Strand	E-score
CACGACGG	0.0415
CGCTGTTA	-0.122
CTAATTGA	0.167
AAACAATC	0.0959
AACGAATG	0.0587
CTAGGTAC	-0.0601
ACAGCAAG	0.0365
AGACCGAA	0.0894
CGGGCCCG	0.12
AAAAGTGC	-0.0998
ATGTCCGG	0.0207
ATGGATTA	-0.0336
GTTGTGTA	-0.123
ATCCGTCA	-0.126
CAACGCGC	0.134
ACCTTTAG	-0.0711
ACGACGCT	-0.131
GGAGTTAC	0.028
CTCTCTGC	0.0312
AGGCCAAC	0.0674
ACTAGATC	-0.145
ACGAATAC	0.0463

Set 3 — technique: RNA Bind-n-Seq; form: RNA; medium: in vitro; tested at: 365 nM; relative to: no-protein control; reading: higher = stronger binding
Target: RNA binding protein fox-1 homolog 2, RRM domain, GST-SBP tag (RBFOX2, Homo sapiens, UniProt O43251-10, residues 100-194)
Setting: natural RNA segment, single round, ends assumed
Constant ends, left off below: GGGAGUUCUACAGUCCGACGAUC … UGGAAUUCUCGGGUGCCAA
Target sequence (chain): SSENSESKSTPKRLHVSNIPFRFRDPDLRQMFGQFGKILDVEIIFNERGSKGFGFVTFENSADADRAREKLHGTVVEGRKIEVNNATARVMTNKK
Strand	RBNS enrichment (R)
UGUGUGUGGAGGAUUUACAGCUAAGCUGUAGUUGCAGAGUACAUGUACAGUAAUGAAGUUCACUGUGUUUAUAAAUUGAAAAGGUACCAGGUCUUACAGCAUUUUAUAUA	0.578
CUCCAUUGGCUAAGAUAGAACACUUAAAAACACUUUUCUCCCCCUUGUUGGGAGUGCUUUAUUUUUUAAAAGCAAACCUAAAUGAAACUAUUUUUCCCCUUAAAAUAGGA	0.825
CCGCCAGUCCAUACGGUGCUGUCACUGCCCAUCUUCGGUGACACCCUGGGGUGAGGUGCUCAGCACCUUCCUCUCGAGGAGCCACAUUUUCCUCCUUUGUGUUAGGGGAC	0.325
UUCACCCAACAACUUCCUCUGUCCUGCUGCACGGUCCAGAGUCUGGGACCGACUUUGUUUCUUUGUUAUUUAUGAUCUUGUUUAAAGAAAAUAAAUAUCUCCCAACCUUU	0.842
AAAACUAAUUUAGGUUCCAAUAGUUGUGCAGAACUUGUGUUUCUUGGUGAUUCUCCUCAAGUACUAGCUGCCUAAGCUACAGAGGGCACUGGCCUGCUCCUACAGAAGGA	0.413
GAUGUCCAGAACUGCAUUAGCCGCUGGGAGAGCCACCGAAGGCCCCAACAGGGGAUGCUCAUCACUGGAGACUGCGACUGGGAAGAACACUGCCCCCUCCCUCGGGUUGG	0.508
GAAGUCGGCCCUCCCUGCUGGCAUAGACCUGAGUGCCAGUGCAGCUCAGCAGAGCACUGACACACACAGGAGACUUUUCUCGAUUAACCGCCCUGCCCGAGCAGCGUUCC	0.313
UAAUGAUGGGGAUGCAUUCUGAGAAAUGUGUCAUUAGGCUGUUUUGUUGCUGUGCCAACAUCCUAGAUUGUACUUACACAACCUACAUGGUAUAGCCUACUACACACCUG	0.444
UCCUUAGAGAUUAAAAGCGGUCAUACAAGUAUGUUCCUAUUUCAUUUCUAUUUUUCACACCAUCACAGGACAAACCAAAGUCAACUGAAAUAAAUGACAGUUUCCAUCCC	0.489
CGGUGCCCCUGCACUACCUGCCCCACGAUCCGCUGCACCAGGAGCUGUCCUUUGGUGUGCCAUAUUCUCACAUGAUGCCACGGAGACUGAGCACCCAGAGAUACCGCCUG	0.701
UUCUAGUGCUCUUAUAUGUCUUUAAUUAUAGGACUGGAAUGAAAAGCUUAACCAUACAGUAUUUCUAAGCAAAAUAAUGUACUCCAUUCUUUUGUCCAUGCUCUCAUUGC	0.622
UUUUCUUACCUGCUUCAAGCCGAGAUCUGAAAGCUUUGUGGAAGAUGAUCAAGCAAAGCUCCCAAGCCAAAGGGUAGCAGAGGGUGGCUACGUGGUUUUUAGGUAGAUGU	1.5

Set 4 — technique: protein-binding microarray; form: double-stranded DNA, one strand shown; medium: in vitro; tested at: 250 nM; setting: 60-bp whole probe; together with: salmon DNA 0.4 mg/ml; relative to: random background probes; reading: higher = stronger binding; constant ends, left off below: GCCTAGCAC … GTCTTGATTCGCTTGACGCTGCTG
Target: Interferon regulatory factor 7, full length, phosphomimetic (IRF7, Homo sapiens, UniProt Q92985, residues 1-503, S101K/S471D/S472D/S475D/S476D/S477D/S483D/S484D/S487D)
Construct (chain): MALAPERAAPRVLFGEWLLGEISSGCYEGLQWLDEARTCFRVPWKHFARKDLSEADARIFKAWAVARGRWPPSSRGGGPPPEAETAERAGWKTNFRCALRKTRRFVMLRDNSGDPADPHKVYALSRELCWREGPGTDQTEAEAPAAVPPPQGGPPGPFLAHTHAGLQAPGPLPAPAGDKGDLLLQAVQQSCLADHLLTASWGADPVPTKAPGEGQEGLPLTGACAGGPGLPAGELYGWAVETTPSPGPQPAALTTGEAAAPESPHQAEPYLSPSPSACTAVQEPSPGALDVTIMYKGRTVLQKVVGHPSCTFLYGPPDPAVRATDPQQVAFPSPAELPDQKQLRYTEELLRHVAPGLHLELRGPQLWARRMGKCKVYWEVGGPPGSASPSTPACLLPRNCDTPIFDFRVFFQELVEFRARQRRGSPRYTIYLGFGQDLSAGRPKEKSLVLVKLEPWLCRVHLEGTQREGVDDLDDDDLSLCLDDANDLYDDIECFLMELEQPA
Strand	log fluorescence
TTAGGTAGCGGTATCGGTTAGTGCTAG	0.452 z-score
TTAGGACTGGGGTATCGATTAGTGCTA	0.3 z-score
TCAGCTTTCTTTATGCAACTGTGCTAG	0.261 z-score
GACGATCTCAGTTTGGAGACGTGCTAG	-0.0184 z-score
TCATCATTGCCTATTTTTCCGTGCTAG	0.359 z-score
GACAATTTCAGTTCCGAGACGTGCTAG	0.757 z-score
TTAGGTTTCGGGACTGGGTTGGTGCTA	3.57 z-score
TACCTTAGGTTTTCTGGTTCCGTGCTA	0.524 z-score
TTTGGTATCGACTATCGGTTAGTGCTA	0.281 z-score
GCCGGTTTCCTTTCCCTGACGTGCTAG	5.44 z-score
TTAGATTTCAGTTTCGCTTAGTGCTAG	7.29 z-score
TTAGATCTCAGAATCGATTAGTGCTAG	0.737 z-score
TTAGGTTTCAGGTATCGGTTAGTGCTA	3.3 z-score
TTAGGACTGGGTCTGGGTTAGTGCTAG	-0.189 z-score
TTAGGTTTCGGACTGTGTTAGTGCTAG	5.19 z-score
GACGGTCTCAGTCTCGGGACGTGCTAG	0.277 z-score
TGTGGCTTAGCTGTCACCTCGTGCTAG	-0.663 z-score
TCAATGTTCCTTATTTAACTGTGCTAG	1.33 z-score
GACGGTTTCCTTCTCGTGACGTGCTAG	2.26 z-score
GAGGATTTCAGACTGGAGACGTGCTAG	-0.59 z-score
TCAAATTTTCATTTTCCACTGTGCTAG	1.46 z-score
TTAGATTTCAGTTCCGATCAGTGCTAG	1.07 z-score
AGTCTCTTCTGGGACTCATGGTGCTAG	0.262 z-score
GACGGACTGGGGACTGGCGACGTGCTA	-0.853 z-score
GTCTCTGTTCTTTTCAGTCCGTGCTAG	2.69 z-score

Set 5 — technique: DHFR PCA, deep sequencing; medium: yeast; together with: (+)-ABA 0 µM; relative to: wild-type fitted maximum; reading: higher = stronger binding
Target: ABI1, truncated, D143A, DHFR fusion (Arabidopsis thaliana)
Setting: methotrexate growth selection, single substitutions
Starting sequence: PYL1, truncated, DHFR fusion (Arabidopsis thaliana); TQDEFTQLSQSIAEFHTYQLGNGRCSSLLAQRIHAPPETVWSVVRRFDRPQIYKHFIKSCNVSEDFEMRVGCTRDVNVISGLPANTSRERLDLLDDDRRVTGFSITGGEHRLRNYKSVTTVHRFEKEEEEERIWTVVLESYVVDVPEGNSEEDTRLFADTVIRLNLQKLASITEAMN; partner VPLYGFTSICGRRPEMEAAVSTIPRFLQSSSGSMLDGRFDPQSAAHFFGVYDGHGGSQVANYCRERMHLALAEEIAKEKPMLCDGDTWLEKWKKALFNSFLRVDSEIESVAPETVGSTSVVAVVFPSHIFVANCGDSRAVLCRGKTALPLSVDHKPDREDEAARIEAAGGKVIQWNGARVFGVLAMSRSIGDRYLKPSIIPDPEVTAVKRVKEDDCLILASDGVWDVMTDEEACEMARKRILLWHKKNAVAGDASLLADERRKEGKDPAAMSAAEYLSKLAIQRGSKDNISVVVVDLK
Substitution	relative binding score [%]
N149S	61.6
L20S	34.3
G148H	-2.1
S87Y	46.7
A35I	0.171
K54R	16.7
L169V	1.48
N165F	-5.2
R88I	29.4
Q7F	22.2
N61V	49.6
I133Q	32.4
R111T	3.14
R111L	0.786
L8P	0.0622
G148V	2.11
G107I	-5.24
R24D	-0.597

Set 6 — technique: protein-binding microarray; form: double-stranded DNA, one strand shown; medium: in vitro; tested at: not given; reading: higher = stronger binding
Target: Hepatocyte nuclear factor 3-beta, forkhead domain (FOXA2, Homo sapiens, UniProt Q9Y261, residues 142-269)
Setting: k-mer, scored over probes, only values ≥0.25
Construct (chain): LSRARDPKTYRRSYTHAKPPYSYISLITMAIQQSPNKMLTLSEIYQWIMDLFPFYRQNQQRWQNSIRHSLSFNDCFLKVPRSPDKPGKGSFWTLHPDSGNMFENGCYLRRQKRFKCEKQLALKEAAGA
Strand	E-score
CATGATTA	0.292
GGTCTATA	0.272
AATTATGA	0.294
ACATATAA	0.424
CTTATGTA	0.336
AAAATAAC	0.251
ATCTATCA	0.252
TGTACAAA	0.343
ATGGAATA	0.325
TTGATAAA	0.263
GTATGTAA	0.38
ATTATCTA	0.329
ATATTATG	0.388
ATAAAAAC	0.254
ACAATGAT	0.278
AATCATAT	0.325
CTTATTGA	0.304
CAACTATA	0.299
ATCATTAG	0.3
TACAATCA	0.317
AAACACTC	0.276

A few entries again (set 2):
Strand	E-score
CGGGCCCG	0.12
CGCTGTTA	-0.122
CTCTCTGC	0.0312
ACCTTTAG	-0.0711
AAACAATC	0.0959
AGACCGAA	0.0894
ATGTCCGG	0.0207
ATGGATTA	-0.0336
ATCCGTCA	-0.126
AAAAGTGC	-0.0998
CACGACGG	0.0415
ACGACGCT	-0.131
GTTGTGTA	-0.123
CTAGGTAC	-0.0601
ACTAGATC	-0.145
ACGAATAC	0.0463
GGAGTTAC	0.028
